Published values collected from several papers.
Protocols differ between the studies behind these lines. “And” joins repeats or separate records; there may be more than shown. ± gives the spread as reported.
Organism: Schistosoma mansoni

CC1=C(Cn2cc(CN3CCC(F)(F)CC3)nn2)C(=O)c2ccccc2C1=O
killing (adult worms; 25 µM, 24 h): 43.1%

CCCCNC(CCCC)CSS(=O)(=O)O (stereo not drawn)
total worms recovered (mice; daily x4, 100 mg/kg, from day 11, perfusion day 25): 65 worms per mouse and 66 worms per mouse and 64 worms per mouse

CC(C)[C@@H](C)Nc1nc(-c2cccs2)nc(Cl)c1-c1c(F)cc(F)cc1F
EC50 (worm motility; adult worms ex vivo; 24 h): 490 nM

O=C(Nn1c(-c2cccc(Cl)c2)nc2ccccc2c1=O)c1ccccc1
worm burden (infected mice; intraperitoneal, 50 mg/kg 1 times daily for 3 days, dosed 7 weeks post-infection): 17 ± 10 worms

CC1(C)NC(=O)N(c2ccc(F)c(C(C)(F)F)c2)C1=O
worm burden reduction (adult stage, infected mice; oral, 25 mg/kg; baseline: untreated infected): 95%

CCCCC(CSS(=O)(=O)O)NCC(C)C (stereo not drawn)
mean worms recovered (infected mice; 100 mg/kg x4, dosed from day 11, perfusion day 25): 64 worms per mouse

[2H]C([2H])([2H])C1(C([2H])([2H])[2H])NC(=O)N(c2ccc(F)c(C(C)(F)F)c2)C1=O
worm burden reduction (adult, infected NMRI mice; oral, 100 mg/kg single dose): 100%

CC1=C(Cn2cc(CN3CCC(=O)CC3)nn2)C(=O)c2ccccc2C1=O
IC50 (parasite growth; 72 h, larva): 950 nM

CC(C)NCC(SS(=O)(=O)O)c1ccccc1 (stereo not drawn)
worm burden reduction (infected mice; 100 mg/kg x4, dosed from day 11, perfusion day 25; baseline: vehicle): 46%

Excerpt of the above:
O=C(Nn1c(-c2cccc(Cl)c2)nc2ccccc2c1=O)c1ccccc1
worm burden (infected mice; intraperitoneal, 50 mg/kg 1 times daily for 3 days, dosed 7 weeks post-infection): 17 ± 10 worms
